Measurements from different studies.
Compare with care: the assays were run in different laboratories. ± gives the spread as reported.
Cell line: LNCaP

For `Cc1ccc(C(C)C)cc1.Cc1ncc(CO)c(C=NNC2=Nc3ccccc3-c3[nH]c4ccc(Br)cc4c3C2)c1O.[Cl-].[Cl][Ru+]`, the IC50 was 5.2 µM (cell growth or viability, MTT; 96 h).
`O=[N+]([O-])c1ccc(/N=N/c2ccc(O)c(O)c2)cc1` has an IC50 of 3.24 µM (cell growth or viability, resazurin; 72 h).
`COC1=C(OC)C(O)C(CC=C(C)CCC=C(C)CCC=C(C)C(=O)O)C(C)C1=O` (stereo not drawn) has an IC50 of > 25 µM (cell growth or viability, MTS; 72 h).
With `O=C(O)CCC(NP(=O)(O)OCCC[C@@H](NC(=O)CC[C@H](NC(=O)CCCCCNC(=O)c1ccc([18F])cc1)C(=O)O)C(=O)O)C(=O)O` (stereo partly drawn) the cell uptake was 8.74 ± 2.67% (concentration not given, 4 h).
For `CC1(CO)CCCC2(C)C1CCC1(C)c3cocc3CCC12` (stereo not drawn), mRNA level read “decreased” (qRT-PCR, item: AR; 10 µM, absence of androgen).
With `Cc1ccc(C(C)C)cc1.Oc1ccccc1C=NNC1=Nc2ccccc2-c2[nH]c3ccc(Br)cc3c2C1.[Cl-].[Cl][Os+]` the IC50 was 5.3 µM (cell growth or viability, MTT; 96 h).
Under “FOXA1 promoter recruitment”, `COc1ccc(CCNc2ncnc3sc(C)cc23)cc1OC` is recorded as “decreased” (ChIP-qPCR, item: FOXM1, CDK1, CDKN1A promoters; 4 µM, 12 h).
For `Cc1cc(C(C)N(CCOC(=O)[C@H](CC(C)C)NC(=O)[C@@H](N)CO)c2ccccc2)c2nc(N3CCOCC3)cc(=O)n2c1` (stereo partly drawn), the inhibition was 75% (cellular uptake of compound, LC-MS/MS; 0.5 µM, 1 h, 37 °C, together with: Ser-Leu 10 µM).
`O=C(O)CC[C@H](NC(=O)N[C@@H](CCCCNC(=O)CCCCC[C@H](NC(=O)CCS[C@@H]1O[C@H](CO)[C@H](O)[C@H](O)[C@H]1O)C(=O)NCCCC[C@@H](NC(=O)[C@@H](Cc1ccccc1)NC(=O)[C@@H](Cc1ccc(O)c(I)c1)NC(=O)CCC(C(=O)O)N1CCN(CC(=O)O)CCN(CC(=O)O)CCN(CC(=O)O)CC1)C(=O)O)C(=O)O)C(=O)O` (stereo partly drawn) [lutetium-177 labelled] has an internalized activity of 11.3% (concentration not given, 60 min; relative to: applied).
`CCC(CC)c1nc(-c2ccc(O)cc2O)cs1` has an IC50 of 13.8 µM (cell growth or viability, resazurin; 72 h).
For `C[N+]1(CC(=O)OC2CCCCCCCCCCC2)CCCCC1`, the ED20 was 2.6 µM (cell viability, CellTiter Blue; 96 h).
For `CC1=CC(C)=[N+]2C1=C(CCCC(=O)NCCCCCC(=O)NCCCC[C@H](NC(=O)N[C@@H](CCC(=O)O)C(=O)O)C(=O)O)c1c(C)cc(C)n1[B-]2(F)[18F]` (stereo partly drawn), the internalized fraction was 2.24% (PSMA-mediated internalization; 15 min, together with: 2-PMPA blocking).

Repeated from above:
For `CC1(CO)CCCC2(C)C1CCC1(C)c3cocc3CCC12` (stereo not drawn), mRNA level read “decreased” (qRT-PCR, item: AR; 10 µM, absence of androgen).
